Measured values collected from several papers.
Compare with care: the assays were run in different laboratories. Values joined by “and” are separate records of one study, mostly repeats; a detail may differ. Numbers after ± are the reported error.

| Compound | tested on | test | test system | conditions | scale | measurement | result |
| --- | --- | --- | --- | --- | --- | --- | --- |
| Cc1ccc(N(O)N=Nc2ccc(S(=O)(=O)Nc3onc(C)c3C)cc2)cc1 |  | carrageenan-induced paw edema | Wistar rat | oral, 100 mg/kg, 0 h (baseline), added: carrageenan 1% subplantar | higher = more edema | paw edema volume | 3.41 ± 0.71 a.u. |
| NCC(=O)Nc1cncc(-c2nn3c(=O)cc(N4CCNCC4)nc3s2)c1 |  | ADP-induced platelet aggregation, light transmission aggregometry | stable CAD patients on aspirin | subcutaneous, 0.05 mg/kg, 24 h post-dose, added: ADP 20 µM | baseline: placebo | inhibition of platelet aggregation | -7.83% |
| C[C@H]1C[C@H]2CSC(N)=N[C@@]2(c2nc(NC(=O)c3ccc(OC(F)F)cn3)cs2)CO1 |  | refers to: Aβx-40 | healthy adults, plasma | 540 mg single dose, 6 h post-dose | baseline: placebo | percent change from baseline | -63.3% |
| COc1cc2cc(-c3ccc(CC(=O)Nc4cc(C(C)(C)C(F)(F)F)no4)cn3)cnc2cc1OC |  | RECIST v1.1 | RET-altered advanced solid tumour patients | oral, 150 mg once daily, phase I |  | stable disease as best response | 38% |
| N#Cc1ccc2c(-c3ccncc3)c(-c3ccc(F)cc3)nn2c1 |  | kinase binding, competitor, MIB/MS competition, refers to: RCK2 | Candida albicans cell lysate | 10 µM | baseline: DMSO | log2 fold change | 0.248 |
| Cc1noc(NS(=O)(=O)c2ccc(N=NN(O)c3ccccc3)cc2)c1C |  | carrageenan-induced paw edema | Wistar rat | oral, 100 mg/kg, 3 h after carrageenan, added: carrageenan 1% subplantar | higher = more edema | paw edema volume | 5.32 ± 0.82 a.u. |
| C[C@@H](O)CCOC(=O)C[C@@H](C)O |  | refers to: C10:2 acylcarnitine | human, plasma | 60 min, log2-transformed values |  | metabolite level | -5.27 ± 0.65 µmol/L |
| c1ccc(-c2n[nH]cc2-c2ccnc3ccccc23)nc1 |  | kinase binding, competitor, MIB/MS competition, refers to: ATG1 | Candida albicans cell lysate | 1 µM | baseline: DMSO | log2 fold change | 1.23 |
| COc1cc(Nc2ncc3c(n2)-c2ccc(Cl)cc2C(c2c(F)cccc2OC)=NC3)ccc1C(=O)O |  |  | mouse, NB-EBc1 neuroblastoma xenograft | oral, 10.4 mg/kg, day 7 | baseline: vehicle | relative tumour volume T/C | 1.05 |
| CC(C)NCC(O)c1ccc(O)c(O)c1 (centres unmarked) |  |  | ventricular cardiomyocytes, C57BL/6 mouse | dose not given, 0.572 s |  | sarcomere length | 1.56 µm |
| Cc1cccc(N(O)N=Nc2ccc(S(=O)(=O)Nc3onc(C)c3C)cc2)c1 |  | carrageenan-induced paw edema | Wistar rat | oral, 100 mg/kg, 3 h after carrageenan, added: carrageenan 1% subplantar | higher = more edema | paw edema volume | 5.31 ± 0.51 a.u. |
| Cn1cc(-c2ccc(-c3cncc(Cl)c3N3CCC4(CCNC4=O)CC3)cc2)cn1 | COLO 205 | microarray, refers to: CTGF |  | concentration not given, 2 h | baseline: untreated cells | fold change in expression | 2.1 |
| CN(C)C(=O)c1cc2cnc(Nc3ccc(N4CCNCC4)cn3)nc2n1C1CCCC1 |  | RNA sequencing, refers to: HALLMARK_EPITHELIAL_MESENCHYMAL_TRANSITION | MB002 tumour | concentration not given | baseline: vehicle, direction not given | GSEA enrichment score | -0.321 |
| NC(=NCCC[C@@H](C(=O)NCc1ccccc1)n1cc(-c2ccc(-c3ccccc3)cc2)nn1)c1ccc([N+](=O)[O-])o1 |  | STING signalling, inhibitor, qPCR | iBMDM, mouse | dose not given, 2 h, added: diABZI 500 nM |  | IFN-beta mRNA level | inhibited |
| NC(=O)c1cnc2[nH]ccc2c1N[C@@H]1[C@@H]2CC3C[C@H]1C[C@@](O)(C3)C2 |  | CD8+ naive T cells, flow cytometry | Japanese humans, peripheral blood | 60 mg single dose | baseline: baseline | percent change | -1.43% |
| O=C(O)CNC(=O)Cc1ccccc1 |  |  | ventricular cardiomyocytes, C57BL/6 mouse | dose not given, 0.692 s |  | sarcomere length | 1.72 µm |
| N#Cc1ccc2c(c1)[C@H]1CCCN(C(=O)c3ccc4[nH]cnc4c3)[C@H]1C2 |  |  | human, plasma | 10 mg, day 15, 360 h | baseline: placebo and baseline | change in fasting glucose | 4.9% |
| CCN(O)N=Nc1ccc(S(=O)(=O)Nc2nccs2)cc1 |  | carrageenan-induced paw edema | Wistar rat | oral, 100 mg/kg, 3 h after carrageenan, added: carrageenan 1% subplantar | higher = more edema | paw edema volume | 5.81 ± 0.68 a.u. |
| COc1ccc(-c2cncc(N[C@@H](C)c3cccc(NC(=O)c4cncc(C)c4)c3)n2)cc1OC |  | refers to: rno-miR-204-5p | rat SU5416/hypoxia model, lung | dose not given | baseline: SU5416/hypoxia vehicle | fold change | 1.9 |
| COc1nc(NCc2cn(-c3ccc(C(=O)Nc4ccc([N+](=O)[O-])cc4)cc3)nn2)nc(OC)n1 |  | cell viability, MTT | normal colonocytes, rat | 72 h |  | IC50 | 65 ± 10.5 nM |
| Cn1cc([C@H]2C[C@H]3CSC(N)=N[C@@]3(c3ccc(F)cc3F)CO2)cn1 |  | refers to: Aβx-42 | Mus musculus wild-type, brain | subcutaneous, 10 mg/kg, 13 h |  | Aβ42 level | 0.59 ng/g |

| Compound | tested on | test | test system | conditions | scale | measurement | result |
| --- | --- | --- | --- | --- | --- | --- | --- |
| CN(CCOc1ccc(CC2SC(=O)NC2=O)cc1)c1ccccn1 (racemic) |  | indirect calorimetry | lean mice | dose not given, average over 72 h, end of treatment |  | VCO2 | 75.4 ± 6.14 mL/min/kg |
| N#Cc1ccc2c(c1)[C@H]1CCCN(C(=O)c3ccc4[nH]cnc4c3)[C@H]1C2 |  |  | human clinical trial, male | oral, 240 mg once daily, at last treatment |  | androstenedione level | 8.35 nmol/L |
| CCCNc1nc(Nc2ccc(C#N)cc2)ncc1C#CCCCNC(=O)[C@H](C)N(C)C(=O)/C=C/CN(C)C |  |  | human | 75 mg twice daily, cycle 28 day 1 |  | marrow blasts | 1% |
| Cc1ccc(C(=O)OCc2ccc([C@@H](CN)C(=O)Nc3ccc4cnccc4c3)cc2)c(C)c1 |  | tonometry | NZW rabbit, magnetic bead-induced ocular hypertension | ocular, 0.02%, 0 h |  | IOP | 37.3 mmHg |
| CC(C)C[C@H](NC(=O)[C@@H](Cc1c[nH]c2ccccc12)NC(=O)[C@H](Cc1ccc(O)cc1)NC(=O)[C@H](CO)NC(=O)[C@H](Cc1c[nH]c2ccccc12)NC(=O)[C@H](Cc1c[nH]cn1)NC(=O)[C@@H]1CCC(=O)N1)C(=O)N[C@@H](CCCNC(=N)N)C(=O)N1CCC[C@H]1C(=O)NCC(N)=O |  |  | Chinese boys, central precocious puberty | intramuscular, 22.5 mg day 1, month 6, month 6, unchanged Tanner stage III | baseline: screening | boys at genital stage | 50% |
| OC(CCN1CCCCC1)(c1ccccc1)C1CC2C=CC1C2 (centres unmarked) |  | resting-state EEG | healthy elderly humans | oral, 4 mg, eyes open, LS mean |  | EEG Alpha2-power Pz-O2 | 3.1 µV² |
| CN(O)N=Nc1ccc(S(=O)(=O)Nc2nccs2)cc1 |  | carrageenan-induced paw edema | Wistar rat | oral, 100 mg/kg, 3 h after carrageenan, added: carrageenan 1% subplantar | higher = more edema | paw edema volume | 5.22 ± 1.1 a.u. |
| Cc1ccc(C(=O)Nc2ccnc(S(N)(=O)=O)c2)c(N2CCCC(F)(F)CC2)n1 |  | laser speckle imaging | rhesus macaque | intravenous, dose not given, 10 min after dosing | baseline: vehicle | capsaicin-induced flare area | decreased |
| Cc1cc(F)cc2c(CCC(=O)N[C@@H]3C(=O)NC[C@H]3O)c(-c3ccc(F)cc3)[nH]c12 |  |  | mice, APOL1 G2, single copy | oral, 30 mg/kg twice daily, day 14, dosing from day 6, added: IFNγ plasmid injection |  | UACR | 361 µg/mg |
| CC#CC(=O)N[C@H]1CCCN(c2c(F)cc(C(N)=O)c3[nH]c(C)c(C)c23)C1 |  | refers to: IgM | human | 10 mg once daily, day 21 | baseline: baseline | serum immunoglobulin | -5.7 % change |
| Cc1c(NC(=O)c2cccnc2)c(=O)n(-c2ccccc2)n1C |  | histology | Dmd C3333Y mice, triceps | dose not given |  | centrally nucleated fibres | 64% and 61% and 49% and 62% and 57% |
| CCCCCCCCCCCCCCCC(=O)NCCOC(=O)C[C@@H](CN)CC(C)C |  | mechanical withdrawal threshold | mouse paclitaxel neuropathic pain | oral, dose not given |  | time to peak efficacy | 120 min |
| OC[C@H]1O[C@@H](c2ccc(Cl)c(Cc3ccc(O[C@H]4CCOC4)cc3)c2)[C@H](O)[C@@H](O)[C@@H]1O |  | fasting plasma glucose, exposure-response PK/PD model | type 2 diabetes patients | dose not given, final model estimate |  | AUC50 | 703 nM·h |
| CCOC(=O)[C@H](CCc1ccccc1)N[C@@H](C)C(=O)N1CCC[C@H]1C(=O)O |  |  | renal hypertensive rat | sc osmotic minipump, 40 mg/kg/day | baseline: vehicle | left ventricular end-diastolic volume | increased |
| CNCc1cc(-c2ccccc2F)n(S(=O)(=O)c2cccnc2)c1 |  |  | rat, indomethacin-induced ulcer | oral, 2 mg/kg, 6 h, added: indomethacin 40 mg/kg |  | gastric lesion area | 21.5 ± 5.9 mm² |
| Oc1ccc(/C=C/c2cc(O)cc(O)c2)cc1 |  | RT-qPCR, refers to: BCL2 mRNA | rat, MNU-induced, colon | oral, 10 mg/kg, unit not given | baseline: GAPDH | BCL2 mean ΔCq | 0.88 |
| FC(F)(F)Oc1cccc(-c2cnc3ccc(-c4ccncc4)nn23)c1 |  | bioluminescence | mouse, MDA-MB-231-Luc xenograft | 30 mg/kg, day 21 |  | tumour growth | 248% and 523% and 158% and 301% and 380% |
| Cc1cc(NS(=O)(=O)c2ccc(N=NN(C)O)cc2)no1 |  | carrageenan-induced paw edema | Wistar rat | oral, 100 mg/kg, 3 h after carrageenan, added: carrageenan 1% subplantar | higher = more edema | paw edema volume | 4.41 ± 0.83 a.u. |
| C=CCn1c(=O)c2cnc(Nc3ccc(N4CCN(C)CC4)cc3)nc2n1-c1ccc2c(n1)[C@@](O)(CC)CC2 |  |  | OVCAR-3 xenograft, NOD/SCID mice | oral, 80 mg/kg, day 32, once daily intermittent |  | tumour volume difference | 153 ± 22.7 mm3 |
| CCO[C@H]1CCN(Cc2c(OC)cc(C)c3[nH]ccc23)[C@H](c2ccc(C(=O)O)cc2)C1 |  |  | PNH patients, blood | oral, 50 mg then 200 mg, week 4, mean percent change | baseline: baseline | PNH RBC clone size | 243% |
